Experimental data collected from several papers.
Numbered parts are unrelated; each lists some results of a single study.
UniProt Q8IY84, sequence (whole entry, looked up): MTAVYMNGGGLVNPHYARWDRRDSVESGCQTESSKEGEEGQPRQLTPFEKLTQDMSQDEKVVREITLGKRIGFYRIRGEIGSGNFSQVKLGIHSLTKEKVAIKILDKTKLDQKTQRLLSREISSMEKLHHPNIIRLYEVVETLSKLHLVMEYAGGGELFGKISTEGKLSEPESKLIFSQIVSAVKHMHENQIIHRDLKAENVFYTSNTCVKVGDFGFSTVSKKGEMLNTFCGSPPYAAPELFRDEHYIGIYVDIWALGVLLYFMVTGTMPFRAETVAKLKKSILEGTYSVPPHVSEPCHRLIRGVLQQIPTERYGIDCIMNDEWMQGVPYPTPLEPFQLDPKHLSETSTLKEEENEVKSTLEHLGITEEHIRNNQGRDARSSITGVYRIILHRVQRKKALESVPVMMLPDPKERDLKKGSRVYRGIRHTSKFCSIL

Study 1
Target: Histone acetyltransferase KAT6A, both winged helices, GST fusion (KAT6A, Homo sapiens, UniProt Q92794, residues 1-181)
Technique: protein binding microarray
Form: double-stranded DNA, one strand shown
Matrix: in vitro
Concentration: not given
Notes: 8-mer, flanks averaged, mean of 2 arrays, mostly near background
Reference: not given
Direction: higher = stronger binding
Residues (chain): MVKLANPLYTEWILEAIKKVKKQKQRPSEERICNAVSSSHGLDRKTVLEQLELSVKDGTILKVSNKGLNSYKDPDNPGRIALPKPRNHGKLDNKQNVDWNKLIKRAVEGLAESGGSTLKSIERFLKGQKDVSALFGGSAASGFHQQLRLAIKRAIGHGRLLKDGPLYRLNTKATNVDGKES
Sequence	E-score
ACGGCACA	0.207
TCTGATAA	-0.0361
AATGATCA	-0.0296
AGGACTAG	-0.111
TCGAGCAA	-0.0925
CTAGTCGA	-0.12
TACATGAA	0.0632
GACTTATC	-0.136

Study 2
Target: Phosphate system positive regulatory protein PHO4, full length, GST-tagged (PHO4, Saccharomyces cerevisiae, UniProt P07270, residues 1-312)
Technique: competition protein-binding microarray
Form: double-stranded DNA, one strand shown
Matrix: in vitro
Concentration: 2 µM
Notes: whole 60-bp probe, lowest competitor level
Together with: Cbf1 competitor, 0.05 µM
Direction: higher = stronger binding
Shared flanks, not repeated: … GTCTTGATTCGCTTGACGCTGCTG
Target sequence (chain): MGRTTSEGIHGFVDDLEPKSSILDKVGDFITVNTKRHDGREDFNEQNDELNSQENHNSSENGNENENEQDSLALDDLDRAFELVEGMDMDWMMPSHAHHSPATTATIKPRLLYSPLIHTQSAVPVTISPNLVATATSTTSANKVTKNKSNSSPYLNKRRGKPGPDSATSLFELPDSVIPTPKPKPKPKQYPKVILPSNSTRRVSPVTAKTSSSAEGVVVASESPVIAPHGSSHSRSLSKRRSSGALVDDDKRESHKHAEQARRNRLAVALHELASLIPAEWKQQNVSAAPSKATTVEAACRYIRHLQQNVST
Sequence	fluorescence intensity [a.u.]
CTCTACCAGCACCATCACCTGTGAAATATTGACCAG	4990
CATTGCGGCGGGCACCACATGAACTTCGTCAAGAAT	5870
CTAACGAAGGTTTGTGTTGTGGGTGACAAGCCAAGT	4920
CTAACGAAGGTTTTTCACGTGGTCTACAAGCCAAGT	12000
ACCGGTGCAACTTTCCACATGCACTCTCATTGAGAC	7590
CATACCCAACCTTGTCACGTAACTTAAGATATTTGT	4780
GTAAGACCACAATCCATCGTGTCGGCCCCATGTCGG	8050
GTCTTGTCTCATTGTCACATCACTTTCCCCACTTCA	4860

Study 3
Target: Sal-like protein 4, full length isoform B (SALL4, Homo sapiens, UniProt Q9UJQ4-2, residues 1-616)
Technique: universal PBM
Form: double-stranded DNA, one strand shown
Matrix: in vitro
Concentration: not given
Notes: 8-mer, flanks averaged, mean of replicates
Direction: higher = stronger binding
Sequence	E-score
GTAGATTA	0.286
CAGCGCGC	-0.333
GCTTCACA	-0.00405
GTTCCGTA	0.0404
ACGGACAC	-0.149
ATCACTGG	-0.0114
CGAATGAG	-0.0292
CCTGAGAC	-0.231

Mixed results
Structure (SMILES)	target	read-out	technique	concentration	measurement	result
CCC(=O)N[C@@H]1CC[C@H](C(=O)N(C)c2ccc(-c3nc4ccccc4o3)cc2)C1	Serine/threonine-protein kinase NIM1 (NIM1K, Homo sapiens, UniProt Q8IY84)	cell-free assay	competition with immobilised ligand	1 µM	remaining binding	99%

Some of these lines once more (study 3):
Sequence	E-score
CAGCGCGC	-0.333
ACGGACAC	-0.149
GTAGATTA	0.286
CGAATGAG	-0.0292
